Assay results gathered from unrelated publications.
Lines come from different studies, so protocols differ. Values joined by “and” are separate records of one study, mostly repeats; a detail may differ. ± gives the spread as reported.

CC(C)c1cnc(-c2cc(Cl)ccc2F)cc1Nc1ccncc1C(=O)NC(CO)CO — patients with related SAE (measured: pyrexia; human patients; oral, dose not given, grade 2): 2.4%
Oc1ccc2ccccc2c1/N=N/c1ccc(/N=N/c2ccccc2)cc1 — measured concentration (extracted rat blood QC samples; 0.5 µg/L, 2 h, room temperature, short-term stability): 0.503 µg/L
CC(C)(Sc1ccncc1-c1ccc(C#N)c2ccccc12)C(=O)OC1OC(C(=O)O)C(O)C(O)C1O (centres unmarked) — AUC(0-inf) ratio (plasma; oral, 15 mg, mild renal impairment; reference: impaired over normal renal function): 115%
[11CH3]c1ccc2nc(C3CCC3)n(-c3ccc4[nH]ncc4c3)c2n1 — absorbed radiation dose (standard human adult, thyroid): 2.3 µSv/MBq
C[C@H](NC(=O)c1ccc2c(c1)C(=O)OC21c2ccc(O)cc2Oc2cc(O)ccc21)C(=O)N[C@@H](CCCCN)C(=O)N[C@@H](C)C(=O)N[C@@H](CCCCN)C(=O)N[C@@H](C)C(=O)N[C@@H](CCCCN)C(=O)N[C@@H](C)C(=O)N[C@@H](CCCCN)C(=O)N[C@@H](C)C(=O)N[C@@H](CCCCN)C(=O)N[C@@H](C)C(=O)N[C@@H](CCCCN)C(=O)N[C@@H](C)C(=O)N[C@@H](CCCCN)C(=O)N[C@@H](C)C(=O)N[C@@H](CC(N)=O)C(=O)N[C@@H](C)C(=O)N[C@@H](CC(N)=O)C(=O)N[C@@H](C)C(=O)N[C@@H](CC(N)=O)C(=O)O — cartilage uptake ratio (bovine, healthy cartilage explants; 30 µM, 24 h, 37 °C, 5-FAM labelled; reference: tissue over bath concentration): 15
C=CCn1c2ccc([N+](=O)[O-])cc2c(=O)n1Cc1ccccc1 — CC50 (resazurin; peritoneal macrophages, BALB/c mice; 48 h, 10% FBS): 4.2 ± 0.1 µM
NC(=S)N/N=C/c1ccccc1O — peak current ratio ipa/ipc (cyclic voltammetry; DMF; Cu2+ complex): 0.19
O=C(O)/C=C/c1cccc(S(=O)(=O)Nc2ccccc2)c1 — Cmax metabolic ratio (human, moderate liver dysfunction, plasma; intravenous, 400 mg/m^2 belinostat, cycle 1 day -7, geometric mean; reference: metabolite over belinostat): 0.0824
N#Cc1cnc2cc(OCC3CCNCC3)c(F)cc2c1Nc1cc(F)c(OCc2cccc(Cl)n2)cc1Cl — MRT (male Sprague-Dawley rat, plasma; oral, 30 mg/kg): 6.74 h
O=C(CCc1ccc(CNC(C(=O)O)C2CCCCC2)cn1)NO (centres unmarked) — accumulation ratio Cmax (human, plasma; oral, 20 mg once daily, median; reference: day 7 over day 1): 0.835
N=C(N)NCCC[C@@H]1NC(=O)[C@H](Cc2c[nH]c3ccccc23)NC(=O)[C@@H](CC2CCCCC2)NC(=O)[C@@H]2CCCN2C(=O)[C@@H](NC(=O)CCc2ccccc2)CCCNC1=O — Cmax (C57BL/6J mice, brain; intravenous, 1 mg/kg): 77 ng/g
Cc1ccc(-c2ccc(-c3cc4sccc4o3)cn2)nc1 — radiative decay rate constant (TCSPC; DMSO): 0.5 ns⁻¹
CCOc1ccc(Cc2cc([C@@H]3O[C@H](CO)[C@@H](O)[C@H](O[C@@H]4O[C@H](C(=O)O)[C@@H](O)[C@H](O)[C@H]4O)[C@H]3O)ccc2Cl)cc1 — urinary concentration ratio (dog, urine; reference: dog over human): 30
CC[C@@H](C)[C@H]1NC(=O)[C@@H]([C@H](C)O)NC(=O)[C@@H](Cc2c[nH]cn2)NC(=O)CNC(=O)[C@@H](CCCNC(=N)N)NC(=O)CNC(=O)[C@@H](Cc2ccccc2)NC1=O — retina-choroid concentration (New Zealand rabbit, retina-choroid; eye drop, 0.5% single, 24 h): 3.5 µg/g protein
O=C(O)C1OC(OC2CCC(C(O)CC3c4c(F)cccc4-c4cncn43)CC2)C(O)C(O)C1O (centres unmarked) — AUC(0-48 h) (human, plasma; oral, 200 mg, 0 to 48 h pooled): 2.36 µM·h
CC(=O)N[C@@H](CC(N)=O)C(=O)NCC(=O)N[C@@H](C)C(=O)N[C@@H](C)C(N)=O — half-life of Asn form (1H NMR; sodium phosphate buffer 50 mM; pH 7.4, 55 °C): 3.2 h
CC(C)[C@H](NC(=O)[C@@H]1CCCN1C(=O)[C@H](CCCNC(=N)N)NC(=O)[C@H](CS)NC(=O)[C@H](Cc1c[nH]c2ccccc12)NC(=O)[C@H](CCCNC(=N)N)NC(=O)[C@@H](Cc1ccccc1)NC(=O)[C@H](Cc1c[nH]cn1)NC(=O)[C@H](CCC(=O)O)NC(=O)[C@H](CS)NC(=O)[C@H](CS)NC(=O)[C@@H]1CC(=O)N[C@@H](CCCNC(=N)N)C(=O)NCC(=O)N[C@@H](CC(=O)O)C(=O)N[C@H](Cc2ccc(O)cc2)C(=O)N1)C(N)=O [technetium-99m labelled] — tissue uptake (C57 mouse, female, B16/F1 melanoma, brain; intravenous, 0.037 MBq, 0.5 h): 0.21 ± 0.1 %ID/g
C[C@H](NC(=O)COC(=O)[C@H](C)NC(=O)CO)C(=O)O — depolymerization half-life (water; pH 7, 25 °C): 0.63 h
O=C(O)C1OC(OC2C(COS(=O)(=O)O)OC(OC3C(C(=O)O)OC(OC4C(COS(=O)(=O)O)OC(OC5C(C(=O)O)OC(OC6C(COS(=O)(=O)O)OC(OC7C(C(=O)O)OC(OC8C(COS(=O)(=O)O)OC(OC9C(C(=O)O)OC(OC%10C(COS(=O)(=O)O)OC(OC%11C(C(=O)O)OC(Oc%12ccc([N+](=O)[O-])cc%12)C(O)C%11O)C(NS(=O)(=O)O)C%10O)C(OS(=O)(=O)O)C9O)C(NS(=O)(=O)O)C8O)C(OS(=O)(=O)O)C7O)C(NS(=O)(=O)O)C6O)C(OS(=O)(=O)O)C5O)C(NS(=O)(=O)O)C4O)C(OS(=O)(=O)O)C3O)C(NS(=O)(=O)O)C2OS(=O)(=O)O)C(O)C(O)C1OC1OC(COS(=O)(=O)O)C(O)C(O)C1NS(=O)(=O)O (centres unmarked) — organ-to-body weight ratio (rat, brain; intravenous, 3600 µg/kg per day, 7 days, day 8): 0.71 ± 0.02
CCCCCCCCCCCCCCCC(=O)N[C@@H](CCCCN)C(=O)N[C@@H](CCCCN)C(=O)N[C@@H](CO)C(=O)N[C@@H](CCCNC(=N)N)C(=O)N[C@@H](C)C(=O)N[C@@H](CC(C)C)C(=O)N[C@@H](Cc1ccccc1)C(N)=O — prothrombin time (cynomolgus monkey, female; 3 mg/kg, day 5): 11.6 ± 0.2 s
CC[C@H](C)[C@H](NC(=O)[C@H](Cc1ccccc1)NC(=O)[C@H](CC(=O)O)NC(=O)[C@@H]1CCCCNC(=O)NCCCC[C@H](NC(=O)[C@H](CC(C)C)NC(=O)[C@H](CCCNC(=N)N)NC(=O)[C@H](CCSC)NC(=O)[C@H](C)N)C(=O)N[C@@H](CCCCN)C(=O)N[C@@H](Cc2ccccc2)C(=O)N[C@@H](Cc2ccccc2)C(=O)N1)C(=O)N[C@@H](CC(C)C)C(=O)N[C@@H](CCC(N)=O)C(=O)N[C@@H](CCCNC(=N)N)C(=O)N[C@@H](CCCCN)C(=O)N[C@@H](CCCCN)C(=O)O — helicity (circular dichroism; 20% TFE in PBS; 200 µM, pH 7.4, 25 °C): 13.6%
Cn1c(=O)oc2ccc(-c3ccc(CC(C#N)NC(=O)C4CNCCCO4)c(F)c3)cc21 (centres unmarked) — lymphadenopathy incidence (human; oral, 20 mg once daily, TEAE, multiple ascending dose): 22.2%
CCCC(CCC)NC(=O)c1ccc(OC2OC(C(=O)O)C(O)C(O)C2O)c(OC)c1 (centres unmarked) — Tmax (female Sprague-Dawley rat, plasma; oral, 200 mg/kg of parent drug): 8 h
CN[C@@H]1[C@H](O)[C@H](NC)[C@H]2O[C@]3(O)[C@H](O[C@@H]2[C@H]1O)O[C@H](C)C[C@@]3(O)CNCc1ccc(OC(F)(F)F)cc1 — urinary excretion unchanged (rat, urine; intravenous, 10 mg/kg; reference: dose): 22%
CC[C@H](C)[C@@H]1NC(=O)[C@H](Cc2ccccc2)NC(=O)[C@@H](NC(=O)[C@H](CCCNC(=N)N)NC(=O)[C@H](Cc2ccccc2)NC(=O)[C@H](Cc2ccccc2)NC(=O)[C@H](CCCCN)NC(=O)[C@H](CO)NC(=O)[C@H](CC(C)C)NC(=O)[C@H](CCCNC(=N)N)NC(=O)[C@H](CCSC)NC(=O)[C@H](C)N)CCNC(=O)NCCCC[C@@H](C(=O)N[C@@H](CCCNC(=N)N)C(=O)N[C@@H](CCCCN)C(=O)N[C@@H](CCCCN)C(=O)O)NC(=O)[C@H](CC(C)C)NC1=O — helicity (circular dichroism; 20% TFE in PBS; 200 µM, pH 7.4, 25 °C): 12.6%
CC1=CC(C)=[N+]2C1=C(CO)c1c(C)cc(C)n1[B-]2(C)C — photostability (DMSO/MeOH 1:1; 10 min, 510 nm irradiation 2.44 J/cm2): stable
O=C([O-])CN1CCN(CC(=O)[O-])CCN(CC(=O)NCC2CCC(C(=O)NC(Cc3ccc4ccccc4c3)C(=O)NCCCCC(NC(=O)NC(CCC(=O)O)C(=O)O)C(=O)O)CC2)CCN(CC(=O)[O-])CC1.[44Sc+3] (centres unmarked) — organ absorbed dose (PET/CT dosimetry, OLINDA/EXM; human, kidneys): 0.293 mSv/MBq and 0.18 mSv/MBq and 0.488 mSv/MBq
Cc1cc(O)cc(O)c1C(=O)c1c2c3c(c(O)cc(C)c3oc1=O)C(=O)c1c(O)cc(O)cc1-2 — elimination half-life (KM mouse, male, plasma; intraperitoneal, 30 mg/kg): 0.793 h
CC[C@H](C)[C@H](NC(=O)[C@H](Cc1ccccc1)NC(=O)[C@H](CCC(=O)O)NC(=O)[C@H](CCCCN)NC(=O)[C@H](C)NC(=O)[C@H](C)NC(=O)[C@H](CCC(N)=O)NC(=O)CNC(=O)[C@H](CCC(=O)O)NC(=O)[C@H](CC(C)C)NC(=O)[C@H](Cc1ccc(O)cc1)NC(=O)[C@H](CO)NC(=O)[C@H](CO)NC(=O)[C@@H](NC(=O)[C@H](CC(=O)O)NC(=O)[C@H](CO)NC(=O)[C@@H](NC(=O)[C@H](Cc1ccccc1)NC(=O)[C@@H](NC(=O)CNC(=O)[C@H](CCC(=O)O)NC(=O)[C@H](C)NC(=O)[C@@H](N)Cc1c[nH]cn1)[C@@H](C)O)[C@@H](C)O)C(C)C)C(=O)N[C@@H](C)C(=O)N[C@@H](Cc1c[nH]c2ccccc12)C(=O)N[C@@H](CC(C)C)C(=O)N[C@H](C(=O)N[C@@H](CCCCN)C(=O)NCC(=O)N[C@@H](CCCNC(=N)N)C(N)=O)C(C)C — metabolic clearance rate (human type 2 diabetes, plasma; intravenous infusion, 1.2 pmol/kg/min, 60 to 360 min): 15.4 ± 7.4 mL/min/kg

A few entries again:
N#Cc1cnc2cc(OCC3CCNCC3)c(F)cc2c1Nc1cc(F)c(OCc2cccc(Cl)n2)cc1Cl — MRT (male Sprague-Dawley rat, plasma; oral, 30 mg/kg): 6.74 h
O=C(CCc1ccc(CNC(C(=O)O)C2CCCCC2)cn1)NO (centres unmarked) — accumulation ratio Cmax (human, plasma; oral, 20 mg once daily, median; reference: day 7 over day 1): 0.835
N=C(N)NCCC[C@@H]1NC(=O)[C@H](Cc2c[nH]c3ccccc23)NC(=O)[C@@H](CC2CCCCC2)NC(=O)[C@@H]2CCCN2C(=O)[C@@H](NC(=O)CCc2ccccc2)CCCNC1=O — Cmax (C57BL/6J mice, brain; intravenous, 1 mg/kg): 77 ng/g
Cc1ccc(-c2ccc(-c3cc4sccc4o3)cn2)nc1 — radiative decay rate constant (TCSPC; DMSO): 0.5 ns⁻¹
CCOc1ccc(Cc2cc([C@@H]3O[C@H](CO)[C@@H](O)[C@H](O[C@@H]4O[C@H](C(=O)O)[C@@H](O)[C@H](O)[C@H]4O)[C@H]3O)ccc2Cl)cc1 — urinary concentration ratio (dog, urine; reference: dog over human): 30
